Experimental data gathered from unrelated publications.
Each numbered part is a random draw from the data of one study; scales do not carry over between parts.

Set 1
Target: Hepatocyte nuclear factor 3-beta, forkhead domain (FOXA2, Homo sapiens, UniProt Q9Y261, residues 142-269)
Technique: protein-binding microarray
Form: hairpin DNA
Matrix: in vitro
Tested at: not given
Notes: whole hairpin DNA, median over replicate spots
Reference: not given
Reading: higher = stronger binding
Measurement: median fluorescence
Constant ends, left off below: GAGGCCA … TGGCCTCACACTC
Residues (chain): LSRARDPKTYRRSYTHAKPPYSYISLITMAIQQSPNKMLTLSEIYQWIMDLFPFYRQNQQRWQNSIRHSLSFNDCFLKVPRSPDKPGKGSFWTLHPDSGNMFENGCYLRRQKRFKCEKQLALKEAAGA
TGGAACCAACGCCTCCTGGCGTTGGTTCCA (5mC at 35): 3300 a.u.
TGCGAACAACGCCTCCTGGCGTTGTTCGCA (5mC at 10 34): 3270 a.u.
TCTAAACAACGCCTCCTGGCGTTGTTTAGA: 3150 a.u.
TCTAACCAACGCCTCCTGGCGTTGGTTAGA: 3010 a.u.
TGCCGACAACGCCTCCTGGCGTTGTCGGCA: 3380 a.u.
TGTAACCAACGCCTCCTGGCGTTGGTTACA (5mC at 13): 3190 a.u.
TGTAAACGACGCCTCCTGGCGTCGTTTACA: 3320 a.u.
CGTAAACAACGCCTCCTGGCGTTGTTTACG (5mC at 36): 3670 a.u.
TGTAACCACGGCCTCCTGGCCGTGGTTACA (5mC at 28): 3230 a.u.
TGTAACCAACGCCTCCTGGCGTTGGTTACA (5mC at 14): 3110 a.u.
TGTAACCCGCGCCTCCTGGCGCGGGTTACA: 3400 a.u.
TGTAACCAGCGCCTCCTGGCGCTGGTTACA (5mC at 29): 3410 a.u.
TGTAAACAATGCCTCCTGGCATTGTTTACA: 5140 a.u.

Set 2
Target: Sal-like protein 4, full length isoform A (SALL4, Homo sapiens, UniProt Q9UJQ4, residues 1-1053)
Sequence of UniProt Q9UJQ4 (whole entry, looked up): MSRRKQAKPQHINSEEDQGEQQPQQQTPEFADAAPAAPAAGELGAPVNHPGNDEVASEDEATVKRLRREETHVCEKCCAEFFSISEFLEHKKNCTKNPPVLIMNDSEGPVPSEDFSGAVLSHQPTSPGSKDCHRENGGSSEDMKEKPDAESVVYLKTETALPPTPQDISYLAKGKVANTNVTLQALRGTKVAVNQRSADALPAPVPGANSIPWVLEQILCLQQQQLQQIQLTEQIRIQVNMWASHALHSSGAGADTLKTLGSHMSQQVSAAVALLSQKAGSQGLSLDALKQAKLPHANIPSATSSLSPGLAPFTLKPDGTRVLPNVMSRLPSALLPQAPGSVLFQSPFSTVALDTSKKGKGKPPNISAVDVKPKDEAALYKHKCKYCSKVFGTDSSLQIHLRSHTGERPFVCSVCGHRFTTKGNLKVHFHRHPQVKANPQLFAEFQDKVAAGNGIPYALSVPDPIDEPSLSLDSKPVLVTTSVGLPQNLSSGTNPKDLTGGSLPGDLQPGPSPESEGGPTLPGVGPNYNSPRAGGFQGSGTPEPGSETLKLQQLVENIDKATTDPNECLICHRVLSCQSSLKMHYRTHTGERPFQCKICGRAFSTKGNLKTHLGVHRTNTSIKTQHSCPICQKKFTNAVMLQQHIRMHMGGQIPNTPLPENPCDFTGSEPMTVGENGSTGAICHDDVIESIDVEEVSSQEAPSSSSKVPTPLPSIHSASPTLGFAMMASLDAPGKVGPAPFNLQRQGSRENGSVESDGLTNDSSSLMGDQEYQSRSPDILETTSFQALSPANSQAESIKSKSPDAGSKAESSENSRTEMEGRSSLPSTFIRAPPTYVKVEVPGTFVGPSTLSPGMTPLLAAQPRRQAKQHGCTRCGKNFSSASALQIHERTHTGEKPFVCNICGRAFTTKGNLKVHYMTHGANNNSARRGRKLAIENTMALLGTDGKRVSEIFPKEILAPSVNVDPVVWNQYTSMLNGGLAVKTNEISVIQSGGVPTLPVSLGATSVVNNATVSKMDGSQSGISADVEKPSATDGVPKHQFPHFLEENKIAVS
Technique: universal PBM
Form: double-stranded DNA, one strand shown
Matrix: in vitro
Tested at: 600 nM
Notes: 8-mer, flanks averaged, mean of replicates
Reading: higher = stronger binding
Measurement: E-score
AATTAAGC: 0.221
CTTCGTAA: 0.136
CTTGGTTA: 0.0654
CGGAGCAG: -0.235
ATAGCACA: 0.11
CCCCGGGG: -0.426
ACGTCCTA: -0.0942
ACGGAGGC: -0.327
ACCGCCAG: -0.276
AACTGAAC: -0.062
GCTGTTCA: 0.0454
AGGTCTGG: -0.242
TTTCAAAA: 0.383
AGGCCTCA: -0.207
AACTTCCA: -0.034
ACATTCTG: 0.0949
AAGGGTAC: 0.00175

Set 3
Target: RNA binding protein fox-1 homolog 2, RRM domain, GST-SBP tag (RBFOX2, Homo sapiens, UniProt O43251-10, residues 100-194)
Technique: RNA Bind-n-Seq
Form: RNA
Matrix: in vitro
Tested at: 365 nM
Notes: natural RNA segment, single round, ends assumed
Reference: no-protein control
Reading: higher = stronger binding
Measurement: RBNS enrichment (R)
Constant ends, left off below: GGGAGUUCUACAGUCCGACGAUC … UGGAAUUCUCGGGUGCCAA
Target sequence (chain): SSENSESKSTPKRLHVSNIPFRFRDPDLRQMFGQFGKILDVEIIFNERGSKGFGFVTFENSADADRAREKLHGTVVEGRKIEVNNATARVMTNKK
AGAGGCCCCUUCAGGUUCCUGGGUGCUCUUCAAUGGCCAAAACUCGAUUUCAUGUCUGGGAGCCUGGACCAGGCUACCCGGGAAGUCAGGACCCUGAUCAUUCACUGUGA: 0.237
GGAAGGUGCCAGGUGCACUUGGGGUUGGGGUUGGUGUGUUGGGUGUUGAAGUGGAAUCGUUUCAUCCCAGCCAUGGAGGCCACCAGCAGGAGUGUUCAUGGGGAUGUGGG: 0.774
CAGUGUACCAGAACCUGAGGAUGCUCGCUGCAAGGCCUCAGUUCUCAGGCCUUAGGGUGUAUUUGUCUUUCAGGAAGAUCAUAAUGGACAGAGAUCCUUGGAGGUUCAAA: 0.506
CUCACACUCACUCUCUGUUGAGCUUCUUCCCAGGGAAGGGGAUUCUGGGACAGGGGGCUGCCACUAAGCACACACACUCCUCCUAUUUUCCAGAAGUGAACAUUUCAUGU: 0.547
UGGCUUCCCCAGGGAAGGAAAAAUGUGCUUCCUCCCUUUUUUCAAGGGUUCAUCUUUGCUUUAAUUUUGGCAAAAUGUUAAGCAUUUAUUUUGAGCUAAAAAUAAAAGUU: 0.406
UGGCUUAGAAGUGAGGCUCCCUUGAGGUAGGGGUGAGGAUGCAGUACCGGGAAAGUUGGUUAUCUUGGGGUCUCAGCUUCAUUACUGCUUAGGGUUUCCCUGCCCACUCU: 0.519
GGCAGGAACCACUCUGGCUGUCCAGGGGCUCCUGAAAUCUUCUGGUCAUCUACAAAGGGUAACAGGAAGGGAGUUAACGAGGAUGGUGGGAUUCGGUUGAAGGUGCCUGG: 0.684
UAAAAAUUCAAUGAGUAAAACAAAAGCUAGUCAAAUGUGUUAGCAGCAUGCAGAACAAAAACUUUAAACUUUCUCUCUCACUAUACAGUAUAUUGUCAUGUGAAAGUGUG: 12.7
AUUUUGCUAGAGCUCAAGUAAUAGAAACUUAGUUUCAGAAUCCUGAAUCCAACAUCUAUUUGGAAUGAAUGUAAGACCACAGGUAGCAGGCAUACUCCUGCUUAGGAUAA: 0.702
ACACUUUGAUACUUCAAUUAUAUCGUGAAUGUUUUAUUUUGCUAAAUCAUGUGCCAUGUGUAGGCUGUUGUGUGUACACUGUGUCUAAGAGAAGAAGAAAAGAAAAAAAA: 0.561
UAUUAGAUACUCACAAUCAAAGUCUGAUUUAAUGUAAAAAUUAAUAAAAUGUGUCUAUACUUAGCAUUGUAAGGAAAAACAUCAUUACCAUAGAUAUUUAUUAUAUUUGA: 0.883
CCCAUGGGGGAAGUGCAGGCUCCUUCCUGUGGUGCCUCUUUAUAGCCUCACCACCAUGCUAACACUGAGCAUGGUGAGGAGGAGGAAGCUUUGGCUAGCUAAACAUGUUU: 0.454

Set 4
Target: Myc proto-oncogene protein, bHLH-zipper, MAX partner unstated (MYC, Homo sapiens, UniProt P01106, residues 368-449)
Sequence of UniProt P01106 (368-449, looked up): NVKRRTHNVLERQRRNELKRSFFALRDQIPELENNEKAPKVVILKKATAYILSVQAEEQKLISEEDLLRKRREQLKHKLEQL
Technique: protein-binding microarray
Form: double-stranded DNA, one strand shown
Matrix: in vitro
Tested at: not given
Notes: k-mer, scored over probes, only values ≥0.25
Reading: higher = stronger binding
Measurement: E-score
CTCGTGAC: 0.396
GCCCCACC: 0.319
ACTCATGC: 0.303
CACGAGAA: 0.285
ATCACACG: 0.37
CGTGCAAG: 0.285
CCAAACAC: 0.25
CCTCACGC: 0.256
CTCGTGCC: 0.406
CCACGCCC: 0.381
CATGGTAA: 0.288
AGTGCACA: 0.257
ACGCACGG: 0.292
CGGCGTGC: 0.427
CCGCGAGG: 0.365
ACATGTCA: 0.295
CGCGGGGA: 0.276
CCACCCGC: 0.289

Set 5
Target: Interferon regulatory factor 5, full length, phosphomimetic (IRF5, Homo sapiens, UniProt Q13568-2, residues 1-514, S451D/S453D/S456D/S462D)
Technique: protein-binding microarray
Form: double-stranded DNA, one strand shown
Matrix: in vitro
Tested at: 940 nM top
Notes: 60-bp whole probe
With: salmon DNA 0.4 mg/ml
Reference: random background probes
Reading: higher = stronger binding
Measurement: fitted relative affinity
Constant ends, left off below: GCCTAGCAC … GTCTTGATTCGCTTGACGCTGCTG
GACGAACGGGGGACTGGAGACGTGCTA: 0.94 z-score
GACGGTTTCGACTTTCGGGTCGTGCTA: 8.26 z-score
TCAACACTCGGTTTCCAACTGTGCTAG: 0.244 z-score
TTAGATTTCAGTATCTATTAGTGCTAG: 1.78 z-score
GACGAACTGGCGTATCGAGACGTGCTA: 0.0263 z-score
TTTTTTTTGTATTTTTGATAGTGCTAG: 1.33 z-score
GACGGACTGGGACTGGGGAGGTGCTAG: -0.617 z-score
TGTTCATTTTCAAAACTGTTGTGCTAG: 0.672 z-score
TTAGATATCAGTTTCGGTTAGTGCTAG: 9.33 z-score
TTAGGTTTCGGCTTTCGGTTAGTGCTA: 9.66 z-score
GACGGTATCGTACTGCTGACGTGCTAG: 1.79 z-score
CCTCCTTACTTTATGTAGGAGTGCTAG: -0.117 z-score
TCATCTCTGCTTGTATCACTGTGCTAG: 1.43 z-score
GACGGCTTCCTTCTCCTGACGTGCTAG: 0.31 z-score
TTAGATTTCAGTATAGATTAGTGCTAG: 0.841 z-score
GACGATTTCGCGTTTCGAGACGTGCTA: 0.555 z-score
TTAGGTTTCGGGGTTCGGTTAGTGCTA: 8.93 z-score
GACGGAGTGCTTATCCTGACGTGCTAG: -0.259 z-score
TTAGATAGCAGTCTCGATTAGTGCTAG: 1.92 z-score

Set 6
Target: UBE2E2 UBC core domain (UniProt Q96LR5)
Sequence of UniProt Q96LR5 (whole entry, looked up): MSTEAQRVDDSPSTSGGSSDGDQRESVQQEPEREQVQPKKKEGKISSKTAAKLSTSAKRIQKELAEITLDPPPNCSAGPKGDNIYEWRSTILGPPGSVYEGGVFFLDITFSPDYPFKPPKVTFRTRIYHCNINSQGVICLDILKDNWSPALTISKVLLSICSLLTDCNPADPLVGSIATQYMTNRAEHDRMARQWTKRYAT
Technique: yeast two-hybrid
Matrix: yeast
Notes: mostly zero background
Reference: not given
Reading: higher = stronger interaction
Measurement: lacZ reporter activity
B1: RNF133 RING domain (UniProt Q8WVZ7); chain DEEINPNGDSCVICFERYKPNDIVRILTCKHFFHKNCIDPWILPHGTCPICKCDILKVLGIQ
B2: DTX2 RING domain (UniProt Q86UW9); chain EELKVPPDEDCIICMEKLSTASGYSDVTDSKAIGSLAVGHLTKCSHAFHLLCLLAMYCNGNKDGSLQCPSCKTIYGEKTGTQ
B3: MAP3K1 RING domain (UniProt Q13233); chain NSIKDEEEQMCPICLLGMLDEESLTVCEDGCRNKLHHHCMSIWAEECRRNREPLICPLCRSKWRSHDFYS
B1 (RNF133 RING domain): 0
B2 (DTX2 RING domain): 0
GSRLQEINDVCAICYHEFTTSARITPCNHYFHALCLRKWLYIQDTCPMCHQKVYIEDDIK (RNF139 RING domain (UniProt Q8WU17)): 0
B3 (MAP3K1 RING domain): 0
KLRKLKEAMLCMVCCEEEINSTFCPCGHTVCCESCAAQLQSCPVCRSRVEHVQHVY (MYLIP RING domain (UniProt Q8WY64)): 0
KETIKKTTKPCPRCHVPVEKNGGCMHMKCPQPQCRLEWCWNCGCEWNRVCMG (PRKN RING domain (UniProt O60260)): 0
